Earlier results that unrelated publications cite.
Compare with care: the assays were run in different laboratories. “And” joins repeats or separate records; there may be more than shown. Numbers after ± are the reported error.
BRD4 BD1: Bromodomain-containing protein 4, BD1 (BRD4, Homo sapiens, UniProt O60885)
MEP1A: Meprin A subunit alpha (MEP1A, Homo sapiens, UniProt Q16819)
UniProt Q16819, sequence (whole entry, looked up): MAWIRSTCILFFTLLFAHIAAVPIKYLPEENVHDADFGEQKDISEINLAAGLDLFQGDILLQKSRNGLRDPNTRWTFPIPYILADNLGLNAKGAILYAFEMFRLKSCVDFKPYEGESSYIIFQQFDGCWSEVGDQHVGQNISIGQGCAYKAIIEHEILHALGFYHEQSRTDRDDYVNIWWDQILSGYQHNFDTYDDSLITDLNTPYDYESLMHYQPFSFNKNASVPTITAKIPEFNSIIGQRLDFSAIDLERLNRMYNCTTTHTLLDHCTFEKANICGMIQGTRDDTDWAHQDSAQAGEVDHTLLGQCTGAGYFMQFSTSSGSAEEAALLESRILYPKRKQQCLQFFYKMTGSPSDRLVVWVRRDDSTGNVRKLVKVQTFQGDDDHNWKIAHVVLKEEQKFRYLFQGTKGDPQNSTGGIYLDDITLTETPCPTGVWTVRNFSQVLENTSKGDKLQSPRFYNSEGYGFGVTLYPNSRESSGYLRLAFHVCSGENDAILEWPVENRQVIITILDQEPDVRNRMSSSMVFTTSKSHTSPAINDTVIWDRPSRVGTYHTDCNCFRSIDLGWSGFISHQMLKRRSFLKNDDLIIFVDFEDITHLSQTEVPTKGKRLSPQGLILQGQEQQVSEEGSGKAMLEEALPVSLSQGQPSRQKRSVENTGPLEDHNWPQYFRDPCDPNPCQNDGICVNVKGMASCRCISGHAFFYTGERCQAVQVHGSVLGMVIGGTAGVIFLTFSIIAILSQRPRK
UniProt P21397, sequence (whole entry, looked up): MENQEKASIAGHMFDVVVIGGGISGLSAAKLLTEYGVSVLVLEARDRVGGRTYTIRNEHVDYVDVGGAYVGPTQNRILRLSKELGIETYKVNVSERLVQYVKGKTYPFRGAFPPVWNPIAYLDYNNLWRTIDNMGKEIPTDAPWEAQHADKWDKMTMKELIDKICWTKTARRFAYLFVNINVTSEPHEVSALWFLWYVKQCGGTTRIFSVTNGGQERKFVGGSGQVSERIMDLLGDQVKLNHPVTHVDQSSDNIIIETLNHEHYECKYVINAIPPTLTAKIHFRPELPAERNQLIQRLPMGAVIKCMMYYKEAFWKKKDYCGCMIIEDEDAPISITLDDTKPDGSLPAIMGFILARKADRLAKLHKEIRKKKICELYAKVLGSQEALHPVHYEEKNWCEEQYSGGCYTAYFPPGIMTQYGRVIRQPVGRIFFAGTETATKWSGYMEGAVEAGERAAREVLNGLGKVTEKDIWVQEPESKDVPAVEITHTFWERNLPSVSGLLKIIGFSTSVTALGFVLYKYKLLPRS
UniProt P00383, sequence (whole entry, looked up): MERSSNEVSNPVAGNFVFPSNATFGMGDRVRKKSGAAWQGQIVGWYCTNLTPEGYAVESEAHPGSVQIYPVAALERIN
UniProt O14757, sequence (whole entry, looked up): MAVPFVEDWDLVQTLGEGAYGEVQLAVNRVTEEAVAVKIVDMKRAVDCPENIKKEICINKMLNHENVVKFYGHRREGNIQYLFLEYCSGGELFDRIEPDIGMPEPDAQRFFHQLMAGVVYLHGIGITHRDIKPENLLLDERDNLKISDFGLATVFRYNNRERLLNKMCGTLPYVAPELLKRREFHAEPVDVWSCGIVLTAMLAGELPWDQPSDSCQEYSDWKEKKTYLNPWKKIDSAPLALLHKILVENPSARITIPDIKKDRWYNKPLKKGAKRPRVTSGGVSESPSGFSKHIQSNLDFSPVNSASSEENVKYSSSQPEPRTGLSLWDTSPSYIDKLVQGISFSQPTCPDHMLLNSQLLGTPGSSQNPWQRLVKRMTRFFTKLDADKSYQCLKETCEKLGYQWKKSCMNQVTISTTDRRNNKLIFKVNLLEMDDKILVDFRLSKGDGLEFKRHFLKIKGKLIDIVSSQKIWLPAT
UniProt Q9Y2I7, sequence (whole entry, looked up): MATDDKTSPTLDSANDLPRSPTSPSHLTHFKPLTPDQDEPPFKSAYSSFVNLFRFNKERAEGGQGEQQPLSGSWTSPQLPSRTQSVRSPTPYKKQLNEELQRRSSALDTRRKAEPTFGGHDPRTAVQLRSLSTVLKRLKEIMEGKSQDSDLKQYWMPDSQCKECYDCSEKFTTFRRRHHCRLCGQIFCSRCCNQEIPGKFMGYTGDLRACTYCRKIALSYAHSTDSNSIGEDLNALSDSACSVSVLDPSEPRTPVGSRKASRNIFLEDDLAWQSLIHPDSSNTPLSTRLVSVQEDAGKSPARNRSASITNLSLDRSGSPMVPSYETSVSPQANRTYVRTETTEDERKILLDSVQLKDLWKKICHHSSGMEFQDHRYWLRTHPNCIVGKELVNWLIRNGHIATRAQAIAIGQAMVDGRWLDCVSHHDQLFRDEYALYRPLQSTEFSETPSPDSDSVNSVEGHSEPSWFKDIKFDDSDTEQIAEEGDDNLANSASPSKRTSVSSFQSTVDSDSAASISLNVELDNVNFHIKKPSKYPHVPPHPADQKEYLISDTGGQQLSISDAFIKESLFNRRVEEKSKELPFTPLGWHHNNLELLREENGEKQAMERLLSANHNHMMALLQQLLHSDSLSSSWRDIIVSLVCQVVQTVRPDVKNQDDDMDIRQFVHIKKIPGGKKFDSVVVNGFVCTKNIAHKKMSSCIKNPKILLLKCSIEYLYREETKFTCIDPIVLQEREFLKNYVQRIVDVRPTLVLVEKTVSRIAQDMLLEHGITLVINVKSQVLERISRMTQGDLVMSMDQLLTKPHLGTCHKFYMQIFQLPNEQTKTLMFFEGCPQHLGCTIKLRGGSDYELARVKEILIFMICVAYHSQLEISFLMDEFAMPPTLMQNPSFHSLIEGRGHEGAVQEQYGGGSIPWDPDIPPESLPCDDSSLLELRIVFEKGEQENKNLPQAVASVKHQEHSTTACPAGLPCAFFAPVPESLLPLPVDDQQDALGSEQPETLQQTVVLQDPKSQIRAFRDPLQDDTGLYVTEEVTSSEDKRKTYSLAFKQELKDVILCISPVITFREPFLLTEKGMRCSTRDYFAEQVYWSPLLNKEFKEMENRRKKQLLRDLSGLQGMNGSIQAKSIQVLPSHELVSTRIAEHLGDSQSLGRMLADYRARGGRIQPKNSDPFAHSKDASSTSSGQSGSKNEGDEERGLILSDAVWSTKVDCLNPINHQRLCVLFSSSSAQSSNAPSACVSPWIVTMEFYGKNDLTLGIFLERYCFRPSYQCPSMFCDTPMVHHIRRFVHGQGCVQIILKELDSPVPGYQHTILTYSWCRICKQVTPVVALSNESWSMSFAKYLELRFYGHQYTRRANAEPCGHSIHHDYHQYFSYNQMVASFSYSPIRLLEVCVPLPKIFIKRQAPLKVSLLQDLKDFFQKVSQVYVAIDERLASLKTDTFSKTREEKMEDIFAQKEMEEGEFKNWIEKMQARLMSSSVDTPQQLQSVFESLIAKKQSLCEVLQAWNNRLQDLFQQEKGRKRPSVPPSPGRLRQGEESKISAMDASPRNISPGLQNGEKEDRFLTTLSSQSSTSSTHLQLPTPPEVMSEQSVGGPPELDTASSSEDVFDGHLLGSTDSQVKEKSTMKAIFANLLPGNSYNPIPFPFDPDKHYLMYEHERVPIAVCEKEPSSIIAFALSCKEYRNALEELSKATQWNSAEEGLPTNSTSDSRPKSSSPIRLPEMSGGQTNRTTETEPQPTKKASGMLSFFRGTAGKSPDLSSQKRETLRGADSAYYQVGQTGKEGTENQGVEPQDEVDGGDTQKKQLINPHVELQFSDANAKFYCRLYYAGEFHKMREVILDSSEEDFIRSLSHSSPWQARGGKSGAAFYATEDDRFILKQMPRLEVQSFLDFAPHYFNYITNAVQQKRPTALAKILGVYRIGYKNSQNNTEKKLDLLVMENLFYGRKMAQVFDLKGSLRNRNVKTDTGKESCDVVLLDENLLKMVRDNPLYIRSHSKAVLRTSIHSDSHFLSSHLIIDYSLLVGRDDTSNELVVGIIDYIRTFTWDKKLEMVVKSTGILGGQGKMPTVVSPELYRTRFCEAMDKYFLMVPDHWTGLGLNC
UniProt P31941, sequence (whole entry, looked up): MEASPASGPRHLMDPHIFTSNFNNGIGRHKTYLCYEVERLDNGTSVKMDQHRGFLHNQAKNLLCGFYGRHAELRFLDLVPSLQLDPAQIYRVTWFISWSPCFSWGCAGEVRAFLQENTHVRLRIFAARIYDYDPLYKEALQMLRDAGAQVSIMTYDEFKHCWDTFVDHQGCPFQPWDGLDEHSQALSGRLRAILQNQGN

Cc1cc(-c2nc3sc4c(c3c(=O)[nH]2)CCN(C)C4)cc(C)c1O — IC50 (BRD4 BD1; biochemical; bromodomain 1): 0.43 µM
O=C(/C=C/c1ccc(O)cc1)OCC(=O)Oc1ccc2ccc(=O)oc2c1 — IC50 (tyrosinase; enzyme activity, inhibitor): 124 µM
Oc1ccc(-c2csc(N/N=C3/c4ccccc4-c4nc5ccccc5nc43)n2)cc1 — IC50 (alpha-amylase; enzyme activity, inhibitor): 0.62 ± 0.04 µM
O=C(N/N=C/c1ccc(O)c(O)c1)c1ccc(-c2nnc(-c3ccc4ncccc4c3)o2)cc1 — IC50 (α-glucosidase; inhibitor): 2.6 ± 0.01 µM
COc1cc2onc(C)c2cc1NS(=O)(=O)c1cc(Br)ccc1OC — IC50 (BRD4 BD1; biochemical; bromodomain 1): 0.082 µM
Cc1nc(-c2ccc(F)cc2)sc1C(=O)N[C@H](C(=O)Nc1cccc(C(N)=O)c1)c1ccc(OCc2ccccc2)cc1 — IC50 (Genome polyprotein, NS2B-NS3 protease (dengue virus type 2, UniProt P29990); protease activity, inhibitor; added: substrate 50 µM): 12 µM
Cc1cc2c(c(O)c1O)C(=O)c1c(O)cc(O)cc1C2=O — IC50 (Amine oxidase [flavin-containing] A (MAOA, Homo sapiens, UniProt P21397)): 5.35 ± 0.09 µM
O=C(N/N=C/c1cc(O)c(O)cc1O)c1ccc(-c2nnc(-c3ccc4ncccc4c3)o2)cc1 — IC50 (α-glucosidase; inhibitor): 2.6 ± 0.01 µM
COc1ccc(Nc2nc(Nc3ccc(OCC[18F])cc3)ncc2Br)cc1 — tumour to tissue ratio (S180 tumour-bearing mice; intravenous, 15 min; baseline: tumour over muscle): 2.51
O=C(CN(Cc1ccc2c(c1)OCO2)Cc1ccc2c(c1)OCO2)NO — IC50 (MEP1A; enzyme activity, inhibitor): 1.92 ± 0.12 µM
COc1ccc(C(C)=O)c(OC(=O)/C=C/c2ccc(O)cc2)c1 — IC50 (tyrosinase; inhibitor): 2 µM
CNc1nc(-c2nn(C)c(C)c2Oc2ccccc2)cn2c(C)nnc12 — IC50 (BRD4 BD1; biochemical; bromodomain 1): 0.001 µM
CCc1nc2c(-c3ccc(Cl)cc3)nc3ccccc3c2c(=O)n1CC(=O)O — IC50 (aldose reductase AKR1B1): 0.12 ± 0.001 µM
N#Cc1cnc(NC(=O)Nc2cc(Cl)ccc2OC2CCOC2)cn1 (stereo not drawn) — IC50 (Serine/threonine-protein kinase Chk1 (CHEK1, Homo sapiens, UniProt O14757); inhibitor): 0.003 µM
c1ccc2c3c([nH]c2c1)C(c1c[nH]c2ncccc12)NCC3 (stereo not drawn) — IC50 (COLO 320 ABCB1-resistant colon; cytotoxicity): 54.2 µM and 50 to 80 µM
O=C(CCN(Cc1cccnc1)Cc1cccnc1)NO — IC50 (MEP1A; enzyme activity, inhibitor): 7.68 ± 0.41 µM
O=C(O)c1ccc2[nH]c(-c3ccc(OCC(O)COc4ccc(-c5nc6cc(C(=O)O)ccc6[nH]5)cc4)cc3)nc2c1 — IC50 (Dihydrofolate reductase type 2 (Escherichia coli, UniProt P00383)): 130 ± 11 µM
Cc1cc(N=Nc2ccc3c(c2)CCC(=O)N3)c(N)cc1O — IC50 (BRD4 BD1; biochemical; bromodomain 1): 0.027 µM
Oc1ccc(Cl)cc1/C=N\Nc1nc(-c2ccc(F)cc2)cs1 — IC50 (alpha-amylase; enzyme activity, inhibitor): 5.14 ± 0.03 µM
CC(C)c1ccc(CN2CCN(CC(=O)c3ccc4[nH]c(=O)[nH]c4c3)CC2)cc1 — IC50 (DNA dC->dU-editing enzyme APOBEC-3A (Homo sapiens, UniProt P31941)): 9 µM
C/C=C(\C)CC/C=C(\C)C(=O)OCC(C)(C)CC1=C(O)C(=O)c2ccccc2C1=O — IC50 (alpha-glucosidase; inhibitor): 22.6 ± 0.6 mg/L
NC(=S)N/N=C/c1c[nH]c2ccccc12 — IC50 (tyrosinase; enzyme activity): 102 µM
CN(C)C/C=C/C(=O)Nc1ccc(C(=O)Nc2cccc(Nc3cc(-c4c[nH]c5ccccc45)ncn3)c2)cc1 — IC50 (1-phosphatidylinositol 3-phosphate 5-kinase (PIKFYVE, Homo sapiens, UniProt Q9Y2I7); enzyme activity, inhibitor): < 0.32 µM
CC1C(=O)N(C)c2ccc(-c3ccc(Nc4cccc(S(=O)(=O)N(C)C)c4)cc3)nc2N1C1CCN(C)CC1 (stereo not drawn) — IC50 (BRD4 BD1; biochemical; bromodomain 1): < 0.1 µM
CC(=O)c1sc(N/N=C2/c3ccccc3-c3nc4cc(F)ccc4nc32)nc1C — IC50 (α-glucosidase): 0.982 ± 0.04 µM
Cc1cc(S(=O)(=O)NC2CCCC2)cc(-c2csc(=O)[nH]2)c1N — IC50 (BRD4 BD1; biochemical; bromodomain 1): 0.79 µM
O=C(CCN(Cc1ccc(Cl)c(O)c1F)Cc1ccc(Cl)c(O)c1F)NO — IC50 (MEP1A; enzyme activity, inhibitor): 0.186 ± 0.001 µM

A few entries again:
Oc1ccc(-c2csc(N/N=C3/c4ccccc4-c4nc5ccccc5nc43)n2)cc1 — IC50 (alpha-amylase; enzyme activity, inhibitor): 0.62 ± 0.04 µM
O=C(N/N=C/c1ccc(O)c(O)c1)c1ccc(-c2nnc(-c3ccc4ncccc4c3)o2)cc1 — IC50 (α-glucosidase; inhibitor): 2.6 ± 0.01 µM
COc1cc2onc(C)c2cc1NS(=O)(=O)c1cc(Br)ccc1OC — IC50 (BRD4 BD1; biochemical; bromodomain 1): 0.082 µM
Cc1nc(-c2ccc(F)cc2)sc1C(=O)N[C@H](C(=O)Nc1cccc(C(N)=O)c1)c1ccc(OCc2ccccc2)cc1 — IC50 (Genome polyprotein, NS2B-NS3 protease (dengue virus type 2, UniProt P29990); protease activity, inhibitor; added: substrate 50 µM): 12 µM
